Assay results gathered from unrelated publications.
Each numbered part is a random draw from the data of one study; scales do not carry over between parts. Positions count from the first letter of the parent shown.

Block 1
Target: Centromere-binding protein 1, full length, His-tagged (CBF1, Saccharomyces cerevisiae, UniProt P17106, residues 1-351)
Chain of UniProt P17106 (whole entry, looked up): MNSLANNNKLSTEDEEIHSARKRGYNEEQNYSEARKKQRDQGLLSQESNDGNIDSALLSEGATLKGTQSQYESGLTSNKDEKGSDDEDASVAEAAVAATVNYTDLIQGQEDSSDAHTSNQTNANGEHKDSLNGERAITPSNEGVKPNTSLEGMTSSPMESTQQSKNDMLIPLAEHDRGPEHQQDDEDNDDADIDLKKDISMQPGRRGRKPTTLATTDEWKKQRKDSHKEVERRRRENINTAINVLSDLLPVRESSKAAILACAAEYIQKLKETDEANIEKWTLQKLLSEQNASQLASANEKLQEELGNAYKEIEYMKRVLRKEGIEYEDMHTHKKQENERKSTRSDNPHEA
Technique: competition protein-binding microarray
Molecule type: double-stranded DNA, one strand shown
Matrix: in vitro
Tested at: 2 µM
Setting: whole 60-bp probe, lowest competitor level
Added: Pho4 competitor, 0.05 µM
Direction: higher = stronger binding
Measurement: fluorescence intensity
TAAATTAGTATACTGCCCGATCAAACCATCTAGTTAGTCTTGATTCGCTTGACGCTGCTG: 74.7 a.u.
CAAGATATAACTCATCACATGTTAAAGAACCCACAAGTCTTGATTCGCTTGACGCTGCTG: 985 a.u.
ACCATCTTGACTAACAACGTGTACAACTCTTTTGAAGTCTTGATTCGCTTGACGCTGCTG: 111 a.u.
CATACCCAACCTTGCCGAGTGGGTGAAGATATTTGTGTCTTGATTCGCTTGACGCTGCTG: 69.1 a.u.
CGGGGTTAAGTTTGGTCTGTGGGTGGCTTGCAGCAGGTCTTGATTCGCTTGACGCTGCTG: 63.1 a.u.
CTTAGAAGGCCGGCCCGCATGATTCAGAAGCAGACCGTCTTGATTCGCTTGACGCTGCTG: 76.2 a.u.

Block 2
Target: CCNE2, cyclin fold, Cln2 fusion (human)
Technique: yeast growth competition, sequencing
Matrix: yeast
Setting: strong parent motif
Reference: not given
Direction: higher = stronger binding
Measurement: normalised enrichment score
Parent: BRCA2 docking peptide (human); PSIKRNLLNEFDR; partner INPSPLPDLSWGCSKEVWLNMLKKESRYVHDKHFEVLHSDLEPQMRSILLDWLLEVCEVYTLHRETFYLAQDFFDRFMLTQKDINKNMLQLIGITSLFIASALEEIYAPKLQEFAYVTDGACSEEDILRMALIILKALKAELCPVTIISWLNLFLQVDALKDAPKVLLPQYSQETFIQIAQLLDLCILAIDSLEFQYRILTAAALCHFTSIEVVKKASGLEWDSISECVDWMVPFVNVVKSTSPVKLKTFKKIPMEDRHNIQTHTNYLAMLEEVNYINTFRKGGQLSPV
F11W: 0.485
F11A: 0.515
L7T: 0.579

Block 3
Target: Interferon regulatory factor 3, full length, phosphomimetic (IRF3, Homo sapiens, UniProt Q14653, residues 1-427, S386D/S396D/S398D/S402D/T404D/S405D)
Technique: protein-binding microarray
Molecule type: double-stranded DNA, one strand shown
Matrix: in vitro
Tested at: 2540 nM top
Setting: 60-bp whole probe
Added: salmon DNA 0.4 mg/ml
Reference: random background probes
Direction: higher = stronger binding
Measurement: fitted relative affinity
Shared flanks, not repeated: GCCTAGCAC … GTCTTGATTCGCTTGACGCTGCTG
Construct (chain): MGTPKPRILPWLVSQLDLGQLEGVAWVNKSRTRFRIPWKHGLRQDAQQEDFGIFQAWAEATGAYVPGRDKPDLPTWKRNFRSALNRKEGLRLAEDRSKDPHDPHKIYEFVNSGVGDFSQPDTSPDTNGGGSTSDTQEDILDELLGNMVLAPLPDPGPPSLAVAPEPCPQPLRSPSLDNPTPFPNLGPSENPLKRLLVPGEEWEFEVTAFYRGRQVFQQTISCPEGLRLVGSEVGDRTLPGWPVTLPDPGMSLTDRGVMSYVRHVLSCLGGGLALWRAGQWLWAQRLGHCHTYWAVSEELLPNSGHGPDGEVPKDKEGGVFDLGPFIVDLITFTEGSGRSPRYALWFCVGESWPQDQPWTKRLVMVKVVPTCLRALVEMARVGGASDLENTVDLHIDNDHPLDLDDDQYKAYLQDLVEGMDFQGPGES
GACGGTTTCATTTCCCTGACGTGCTAG: 5.38 z-score
TTTCTTTTATGCTCTTTCTACGTGCTA: 3.4 z-score
TCAAACATCTACAATGGCACTGTGCTA: -0.134 z-score
TTACGACTGCTTATCCTTTAGTGCTAG: -0.17 z-score
GACGAACTGGGGTTTCGAGATGTGCTA: 0.436 z-score
GACGGACTGGGGTTCGGGACGTGCTAG: -0.723 z-score
TCAGGACTGGGTATCGGTTAGTGCTAG: 0.68 z-score
TTACGTTTCCTTTTCCTTTAGTGCTAG: 9.84 z-score

Other studies, line by line
PhoQ, residues 284 288 289 292 302 303 SSCCRF
fold induction (PhoP, residues 12 14 15 18 19 SMASL (Escherichia coli, UniProt P23836); Sort-seq, measured: YFP reporter; E. coli; PhoQ-PhoP variant library, added: 10 µM Mg2+; reference: high Mg2+ state, higher = stronger signaling): 10

For quick reference, copied from above (block 3):
GACGGACTGGGGTTCGGGACGTGCTAG: -0.723 z-score
TCAGGACTGGGTATCGGTTAGTGCTAG: 0.68 z-score
TTACGTTTCCTTTTCCTTTAGTGCTAG: 9.84 z-score
